{"data": "Assay results pooled from the literature", "MAPK14": "Mitogen-activated protein kinase 14 (MAPK14, Homo sapiens, UniProt Q16539)", "note": "Each line is one published result; not all experiments were run side by side.", "sequence of UniProt Q16539 (whole entry, unmodified, looked up)": "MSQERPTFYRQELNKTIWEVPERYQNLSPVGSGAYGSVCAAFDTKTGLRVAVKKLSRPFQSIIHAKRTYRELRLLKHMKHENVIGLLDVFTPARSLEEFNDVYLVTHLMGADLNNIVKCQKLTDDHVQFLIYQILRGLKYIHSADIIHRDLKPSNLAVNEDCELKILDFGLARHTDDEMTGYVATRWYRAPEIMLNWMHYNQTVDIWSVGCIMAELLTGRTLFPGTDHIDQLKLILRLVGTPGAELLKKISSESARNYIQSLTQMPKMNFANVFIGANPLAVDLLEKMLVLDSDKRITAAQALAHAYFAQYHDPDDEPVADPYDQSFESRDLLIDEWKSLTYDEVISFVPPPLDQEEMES"}
{"Structure (SMILES)": "CCN1CCN(Cc2ccc(NC(=O)c3ccc(C)c(Oc4ncnc5[nH]ncc45)c3)cc2C(F)(F)F)CC1", "target": "MAPK14", "assay": "kinase probe binding, inhibitor, KiNativ", "system": "Huh-7 cell lysate", "conditions": "1.0 µM", "measurement": "inhibition", "result": "98.6%"}
{"Structure (SMILES)": "CSc1nc(C)c(-c2ccnc(Nc3ccc(N4CCOCC4)cc3)c2)[nH]1", "target": "MAPK14", "assay": "kinase activity", "conditions": "10 µM", "measurement": "inhibition", "result": "11.4%"}
{"Structure (SMILES)": "Cn1cc(-c2ccnc3ccccc23)c(-c2ccccn2)n1", "target": "MAPK14", "assay": "enzyme activity", "scale": "relative to: LY selectivity Yck2 over MAPK14", "measurement": "selectivity improvement", "result": "2 fold"}
{"Structure (SMILES)": "N#Cc1ccc2c(-c3ccncc3)c(-c3ccc(F)cc3)nn2c1", "target": "MAPK14", "assay": "inhibitor, NanoBRET", "system": "HEK293", "conditions": "1.0 µM", "measurement": "target occupancy", "result": "> 70%"}
{"Structure (SMILES)": "CNc1ncc2c(/C=C/C(=O)N3CCC(OC)CC3)nn(Cc3cccc(C(F)(F)F)c3)c2n1", "target": "MAPK14", "assay": "kinase activity, inhibitor", "conditions": "1 µM", "scale": "relative to: untreated control", "measurement": "remaining activity", "result": "89%"}
{"Structure (SMILES)": "Cc1noc(C)c1Cc1ccc(C(=O)N2CCc3c(nc4cc(-c5ccccc5)[nH]n4c3=O)C2)o1", "target": "MAPK14", "assay": "kinase activity, LanthaScreen TR-FRET", "conditions": "SB202190 287.5 µM as -100%", "scale": "relative to: DMSO control", "measurement": "efficacy", "result": "-89.5%"}
{"Structure (SMILES)": "Oc1ccc(-c2nc(-c3ccncc3)c(-c3ccc(F)cc3)[nH]2)cc1", "target": "MAPK14", "assay": "kinase activity, Kinase-Glo", "conditions": "concentration not given", "measurement": "normalized luminescence", "result": 1.06}
{"Structure (SMILES)": "O=C1NC(=O)/C(=C/c2ccc(-c3ccc(F)cc3O)o2)S1", "target": "MAPK14", "assay": "enzyme activity", "conditions": "10 µM", "measurement": "remaining activity", "result": "86%"}
{"Structure (SMILES)": "CCc1ccc(NC(=O)CSc2nc(-c3cccc(OC)c3)nc3c2Cc2c(CO)cnc(C)c2O3)cc1", "target": "MAPK14", "assay": "kinase activity, LanthaScreen TR-FRET", "conditions": "SB202190 287.5 µM as -100%", "scale": "relative to: DMSO control", "measurement": "efficacy", "result": "-16.9%"}
{"Structure (SMILES)": "CCCOc1ccc(OC)c(F)c1C(=O)c1ccc(C(=O)N[C@@H]2CNC[C@H]2NC(=O)c2ccc3[nH]ncc3c2)cc1", "target": "MAPK14 (Homo sapiens, UniProt Q16539, T106M)", "assay": "enzyme activity", "conditions": "10 µM", "measurement": "remaining activity", "result": "91%"}
{"Structure (SMILES)": "[2H]c1cc(C)c(NC(=O)c2cnc(Nc3cc(N4CCCCC4)nc(C)n3)s2)c(Cl)c1", "target": "MAPK14", "conditions": "0.01 µM", "measurement": "inhibition", "result": "< 30%"}
{"Structure (SMILES)": "COc1ccc2c(c1)CCc1c-2n[nH]c1C(=O)N1CCc2nc3cc(-c4ccccc4)[nH]n3c(=O)c2C1", "target": "MAPK14", "assay": "kinase activity, LanthaScreen TR-FRET", "conditions": "SB202190 287.5 µM as -100%", "scale": "relative to: DMSO control", "measurement": "efficacy", "result": "-24.8%"}
{"Structure (SMILES)": "C=CC(=O)N1CCC(COCC(=O)N2CCN(c3nc(-c4cnc(N)nc4C(F)F)nc(N4CCOC[C@@H]4C)n3)CC2)CC1", "target": "MAPK14", "assay": "KINOMEscan", "conditions": "1 µM", "scale": "relative to: DMSO control", "measurement": "remaining binding", "result": "100%"}
{"Structure (SMILES)": "CCN(CC)c1ccc(C2=NNC(=O)CC2C)cc1[N+](=O)[O-] (stereo not drawn)", "target": "MAPK14", "assay": "enzyme activity, inhibitor", "conditions": "10 µM", "scale": "relative to: vehicle", "measurement": "remaining activity", "result": "97%"}
{"Structure (SMILES)": "Cc1ccc(Nc2nc3nonc3nc2Nc2cccc(C(F)(F)F)c2)cc1Cl", "target": "MAPK14", "assay": "enzyme activity, inhibitor, TR-FRET", "conditions": "up to 30 µM", "measurement": "inhibition", "result": "no inhibition"}
{"note": "Excerpt of the above:"}
{"Structure (SMILES)": "CCN(CC)c1ccc(C2=NNC(=O)CC2C)cc1[N+](=O)[O-] (stereo not drawn)", "target": "MAPK14", "assay": "enzyme activity, inhibitor", "conditions": "10 µM", "scale": "relative to: vehicle", "measurement": "remaining activity", "result": "97%"}
{"Structure (SMILES)": "Cc1ccc(Nc2nc3nonc3nc2Nc2cccc(C(F)(F)F)c2)cc1Cl", "target": "MAPK14", "assay": "enzyme activity, inhibitor, TR-FRET", "conditions": "up to 30 µM", "measurement": "inhibition", "result": "no inhibition"}
